Measured values gathered from unrelated publications.
Protocols differ between the studies behind these lines. ± gives the spread as reported.

For COc1ccc(C2CC(c3ccc(C)cc3)=Nc3ccccc3S2)cc1OC (stereo not drawn), the triglycerides was 112 mg/dL (Wistar rat, STZ-induced diabetes, serum; 20 mg/kg, 28 days).
CC(C)(CCCC/C=C/CCCCCC(C)(C)C(=O)O)C(=O)O — result for “hepatic cholesterol reduction”: 50% (ApoE-/- mouse, Western diet; oral, dose not given, 24 weeks, once daily; relative to: vehicle).
COc1c2c(cc3oc(COC4OC(CO)C(O)C(O)C4O)cc(=O)c13)OC(C(C)(C)O)C2 (stereo not drawn) — result for “hot plate latency”: 12.2 ± 1.28 s (analgesia; mouse; oral, 4 mg/kg, 1.5 h).
With C[C@@H](O)[C@@H]1NC(=O)[C@H](CCCCN)NC(=O)[C@@H](Cc2ccc(NC(N)=O)cc2)NC(=O)[C@H](Cc2ccc(NC(=O)[C@@H]3CC(=O)NC(=O)N3)cc2)NC(=O)[C@H](NC(=O)[C@H](Cc2ccc(Cl)cc2)NC(=O)CN2CCN(CC(=O)O)CCN(CC(=O)O)CCN(CC(=O)O)CC2)CSSC[C@@H](C(=O)N[C@H](Cc2ccc(O)cc2)C(N)=O)NC1=O [gallium-68 labelled] the SUVpeak was 11 (PET/CT; human neuroendocrine tumour patients, lung lesions; 60 min).
For Cc1cc2nc(-c3ccco3)[nH]c2cc1C, the IC50 was 1.52 µM (ABTS scavenging, absorbance).
CC(=O)Oc1cc2c(s1)CCN(C(C(=O)C1CC1)c1ccccc1F)C2 (stereo not drawn): “patients with high reactivity” 67% (ADP-induced platelet aggregation, LTA, >59% aggregation; human patients, platelet-rich plasma; dose not given, 1 h, added: ADP 20 µM).
The EC50 of O=C1c2c(cc(O)c3c2oc2cc(O)c(O)cc23)OC1Cc1ccccc1 (stereo not drawn) is reported as 130 µM (DPPH scavenging, absorbance).
With CN(C)c1ccc(-c2oc3ccccc3c(=O)c2OCc2ccccc2)cc1 the blood glucose was 138 ± 4.89 mg/dL (diabetic rat; 5 mg/kg, day 28, p-nitrophenyl β-glucoside induced).
Cc1nc(C)c(C=[N+]([O-])C(C)(C)C)nc1C has a protein level of 83.8% (western blot, refers to: CDK5; mouse MPTP model; 10 mg/kg; decrease).
The blood glucose of O=c1c(OCc2ccccc2)c(-c2ccc([N+](=O)[O-])cc2)oc2ccccc12 is reported as 407 ± 4.99 mg/dL (diabetic rat; 7.5 mg/kg, day 1, p-nitrophenyl β-glucoside induced).
The EC50 of O=C1CC(c2ccc(O)cc2)Oc2cc3oc4cc(O)c(O)cc4c3c(O)c21 (racemic) is reported as 120 µM (DPPH scavenging, absorbance).
CCOc1ccc(C[C@@H]2NC(=O)[C@@H](N)CSSC[C@@H](C(=O)N3CCC[C@H]3C(=O)N[C@@H](CC(C)C)C(=O)NCC(N)=O)NC(=O)[C@H](CC(N)=O)NC(=O)[C@H](CCC(N)=O)NC(=O)[C@H]([C@@H](C)CC)NC2=O)cc1 has a pA2 of 6.66 (antagonist; Bufo marinus urinary bladder; added: [8-arginine]-vasopressin).
CC[C@H](C)[C@H](NC(=O)[C@H](CCC(=O)O)NC(=O)[C@H](C)NC(=O)[C@@H](NC(=O)[C@H](Cc1c[nH]cn1)NC(=O)[C@@H](NC(=O)[C@H](CCC(=O)O)NC(=O)[C@H](C)NC(=O)[C@@H](NC(=O)[C@H](CC(C)C)NC(=O)[C@H](CCCCN)NC(=O)[C@H](Cc1c[nH]cn1)NC(=O)[C@H](CC(C)C)NC(=O)[C@H](Cc1ccccc1)NC(=O)[C@H](C)NC(=O)[C@H](CCCNC(=N)N)NC(=O)[C@H](CCCNC(=N)N)NC(=O)[C@H](CCCNC(=N)N)NC(=O)[C@H](C)NC(=O)[C@H](CC(=O)O)NC(=O)[C@H](CCC(N)=O)NC(=O)[C@@H](NC(=O)[C@H](Cc1c[nH]c2ccccc12)NC(=O)[C@H](CCCCN)NC(=O)[C@H](C)NC(=O)[C@H](CCCNC(=N)N)NC(=O)[C@H](CCC(N)=O)NC(=O)[C@H](Cc1c[nH]cn1)NC(=O)[C@H](CCSC)NC(=O)[C@H](CC(C)C)NC(=O)[C@H](CCC(N)=O)NC(=O)[C@@H](NC(=O)[C@H](CCC(=O)O)NC(=O)[C@H](C)NC(=O)[C@@H](NC(=O)[C@H](C)N)C(C)C)[C@@H](C)CC)[C@@H](C)CC)[C@@H](C)CC)[C@@H](C)CC)[C@@H](C)O)C(=O)O has a serum calcium of 13 to 16 mg/dL (cynomolgus monkey, serum; subcutaneous, 2.5 and 10.0 nmol/kg, frank hypercalcaemia).
COc1ccc2c(c1)c(CC(=O)OCC(=O)c1ccccc1)c(C)n2C(=O)c1ccc(Cl)cc1: “latency of nociceptive response” 9.64 ± 0.66 s (hot plate test; BALB/c mice; 75 mg/kg, 0 min).
C=C(c1ccc(C(=O)O)c(F)c1)c1cc2c(cc1C)C(C)(C)C=CC2(C)C: “log2 fold change” 0.63 (RNA sequencing, refers to: Cav1 mRNA; rat, brain; dose not given, 24 h, single dose; relative to: vehicle).
CN(C)c1ccc2c(-c3cc(C(=O)N4CCN(CCCOc5ccc6nccc(C(=O)NCC(=O)N7CC(F)(F)C[C@H]7C#N)c6c5)CC4)ccc3C(=O)[O-])c3ccc(=[N+](C)C)cc-3oc2c1 — result for “labelled tumour cells”: less than 0.1% (flow cytometry; mouse B16-F10 tumour, tumour; intravenous, dose not given, 1 h).
Under “total Nrf2 protein level”, CCOP(=O)(CC(=O)Nc1ccc(S(=O)(=O)N(CC(N)=O)c2ccc(N(CC(N)=O)S(=O)(=O)c3ccc(OC)cc3)c3ccccc23)cc1)OCC is recorded as “increased” (Western blot; APP/PS1 mice, hippocampus and frontal cortex; 40 mg/kg).
The inhibition of CC(=O)[O-].O.O.O.O.[Mn+2].[O-]c1ccc(Br)cc1C=NCCN1CCOCC1 is reported as 52.2% (hydroxyl radical scavenging; 240 µM).
The blood glucose of COc1ccc(-c2oc3ccccc3c(=O)c2OCc2ccccc2)cc1 is reported as 193 ± 4.46 mg/dL (diabetic rat; 7.5 mg/kg, day 14, p-nitrophenyl β-glucoside induced).
Under “reduction of CD31-positive vascular area”, CCc1nnc(NS(=O)(=O)c2ccc(NC(=S)NC(=O)/C=C/c3ccc(F)cc3)cc2)s1 is recorded as 63% (athymic nude mice, SK-N-AS xenograft, tumour; i.p., 10 mg/kg daily, 18 days).
With O=C1/C(=C/c2ccc(O)c(O)c2)Oc2cc(O)c3c(oc4cc(O)c(O)cc43)c21 the EC50 was greater than 20000 µM (DPPH scavenging, absorbance).
Cc1cc(N)c2cc(NC(=O)C(=O)Nc3ccc4nc(C)cc(N)c4c3)ccc2n1: “plasma fondaparinux concentration” 0.14 ± 0.06 mg/L (fondaparinux neutralization; mouse; intravenous, 16 mg/kg, 5 min, added: fondaparinux 0.5 mg/kg s.c.).
Cc1ccc(-c2oc3ccccc3c(=O)c2OCc2ccccc2)cc1 gave a blood glucose of 189 ± 5 mg/dL (diabetic rat; 7.5 mg/kg, day 21, p-nitrophenyl β-glucoside induced).
CC[C@H]1[C@@H](O)[C@@H]2[C@H](CC[C@]3(C)[C@@H]([C@H](C)CCOS(=O)(=O)[O-])CC[C@@H]23)[C@@]2(C)CC[C@@H](O)C[C@@H]12.[Na+] — result for “whole-body lean mass”: 14.4 ± 0.4 g (EchoMRI; ob/ob NASH mouse model; oral, 10 mg/kg once daily, before treatment, baseline of 8 week study).
The IC50 of COc1cc(CN2CCN(c3cccc(Cl)c3)CC2)c2cc3[n+](cc2c1O)CCc1cc2c(cc1-3)OCO2 is reported as 5.28 µg/mL (ABTS scavenging, absorbance; 10 min).
Under “depolymerization rate constant”, C[C@H](NC(=O)COC(=O)[C@H](C)NC(=O)CO)C(=O)O is recorded as 4.21 h⁻¹ (water; pH 6, 65 °C).
For O=c1c(OCc2ccccc2)c(-c2cccc([N+](=O)[O-])c2)oc2ccccc12, the blood glucose was 393 ± 4.71 mg/dL (diabetic rat; 5 mg/kg, day 1, p-nitrophenyl β-glucoside induced).
With CSCC[C@@H]1NC(=O)[C@H](C)NC(=O)[C@H]([C@@H](C)O)NC(=O)CNC(=O)[C@H](CC(C)C)NC(=O)[C@H](CCC(N)=O)NC(=O)[C@H](CCCNC(=N)N)NC(=O)[C@@H]2CSSC[C@@H]3NC(=O)[C@@H]4CCCN4C(=O)[C@H](C(C)C)NC(=O)[C@H](CCC(N)=O)NC(=O)[C@H](CCC(N)=O)NC(=O)CNC(=O)[C@H](CC(C)C)NC(=O)[C@@H]4CSSC[C@H](NC(=O)[C@H]([C@@H](C)O)NC(=O)[C@H](C)NC(=O)[C@H](CSSC[C@@H](C(=O)N[C@@H](CO)C(=O)N[C@@H](CCC(N)=O)C(=O)N[C@H](C(N)=O)[C@@H](C)O)NC(=O)[C@@H]5CCCN5C(=O)[C@H](CC(N)=O)NC1=O)NC(=O)[C@@H]1CCCN1C(=O)[C@H](CC(=O)O)NC(=O)[C@H](CSSC[C@H](NC(=O)[C@H](CCCNC(=N)N)NC(=O)[C@H](CCCNC(=N)N)NC(=O)[C@H](CO)NC(=O)[C@@H](N)CO)C(=O)N[C@@H](C(C)C)C(=O)N[C@@H](CCCNC(=N)N)C(=O)N[C@@H](CC(C)C)C(=O)N[C@@H](Cc1c[nH]cn1)C(=O)N[C@@H](CCC(=O)O)C(=O)N[C@@H](CO)C(=O)N4)NC3=O)C(=O)N[C@@H](Cc1ccc(O)cc1)C(=O)N[C@H]1CSSC[C@H](NC(=O)[C@H](Cc3ccccc3)NC(=O)[C@H](C)NC(=O)[C@H](CC(N)=O)NC(=O)[C@H](Cc3ccccc3)NC(=O)[C@H](Cc3ccccc3)NC(=O)[C@H](CCCNC(=N)N)NC1=O)C(=O)N[C@@H](Cc1ccc(O)cc1)C(=O)N2 the food intake was 97.7 ± 10.1 % above saline (Long-Evans rat, male; intracerebroventricular, 1.0 nmol in 1.0 µL, 24 h, non-cumulative; relative to: saline).
For O=c1c(OCc2ccccc2)c(-c2ccc(Cl)cc2)oc2ccccc12, the blood glucose was 441 ± 4.97 mg/dL (diabetic rat; 7.5 mg/kg, day 1, p-nitrophenyl β-glucoside induced).
COc1ccc2c(c1)c(CC(=O)OCOC(C)=O)c(C)n2C(=O)c1ccc(Cl)cc1: “latency of nociceptive response” 15.3 ± 1.3 s (hot plate test; BALB/c mice; 50 mg/kg, 120 min).
With COc1ccc(C2CC(c3ccc(C)cc3)=Nc3ccccc3S2)cc1 (stereo not drawn) the alkaline phosphatase was 198 IU/L (Wistar rat, STZ-induced diabetes, serum; 20 mg/kg, 28 days).
Under “TSPO specific binding”, CC[C@@H](C)N([11CH3])C(=O)c1nc(-c2ccc(Cl)cc2)c2ccccc2n1 is recorded as 87% (PET from VT; rhesus monkey, cerebellum; dose not given).
S=c1n(CN2CCN(c3ccccn3)CC2)nc(C23CC4CC(CC(C4)C2)C3)n1-c1ccccc1: “inhibition in vivo” 33.5% (paw oedema; rat; intraperitoneal, 20 mg/kg).
For CN(C)C(=O)c1cncc(N2Cc3cn(Cc4ccc(F)cc4)nc3C2)n1, “effect size d” read -2.21 (refers to: EAE clinical score; mice EAE model; ip, 5 mg/kg daily, 264 h, unit not given; relative to: vehicle).
CCCCCCCCC=CCCCCCCCC(=O)OCC1OC(n2ccc(N)nc2=O)C(F)(F)C1O (stereo not drawn): “optimal tumour volume T/C” 22% (female nude mouse, colon xenograft, patient-derived colon tumour; oral, 50 mg/kg, dosed days 1 and 8; relative to: saline control).
For CC(=O)Nc1ccc(OC(=O)CCC(=O)[O][Pt-2]23([O]C(=O)CCC(=O)Oc4ccc(NC(C)=O)cc4)([NH2+][C@@H]4CCCC[C@H]4[NH2+]2)[O]C(=O)C(=O)[O]3)cc1, “CD3+CD4+ T cells” read 6.73% (BALB/c mouse, 4T1 tumour, tumour; dose not given).

For quick reference, copied from above:
Cc1ccc(-c2oc3ccccc3c(=O)c2OCc2ccccc2)cc1 gave a blood glucose of 189 ± 5 mg/dL (diabetic rat; 7.5 mg/kg, day 21, p-nitrophenyl β-glucoside induced).
CC[C@H]1[C@@H](O)[C@@H]2[C@H](CC[C@]3(C)[C@@H]([C@H](C)CCOS(=O)(=O)[O-])CC[C@@H]23)[C@@]2(C)CC[C@@H](O)C[C@@H]12.[Na+] — result for “whole-body lean mass”: 14.4 ± 0.4 g (EchoMRI; ob/ob NASH mouse model; oral, 10 mg/kg once daily, before treatment, baseline of 8 week study).
